Assay results gathered from unrelated publications.
Lines come from different studies, so protocols differ. Values joined by “and” are separate records of one study, mostly repeats; a detail may differ. ± marks the error that the study gave.

Compound | tested on | assay | test system | conditions | scale | endpoint | value
Cn1cc(-c2ccc(-c3cncc(Cl)c3N3CCC4(CCNC4=O)CC3)cc2)cn1 | COLO 205 | gene expression, microarray, measured: MXI1 mRNA | – | concentration not given, 2 h | reference: untreated cells | log2 fold change | 2.2
COc1cccc2c1C(=O)c1c(O)c3c(c(O)c1C2=O)C[C@@](O)(C(=O)CO)C[C@@H]3O[C@H]1C[C@H](N)[C@H](O)[C@H](C)O1 | THLE-2 transduced with Ad-CYP1A2 | metabolism-induced cytotoxicity | – | 48 h, 3D Matrigel spots | – | IC50 | 3.9 ± 1 µM
C=CC(=O)N(C)CCOc1c(N)ncnc1-c1cc(F)cc(NC(=O)c2ccc(C3CC3)cc2F)c1C | human hepatocytes | mRNA induction, inducer, measured: CYP2B6 | – | – | – | EC50 | 5.47 µM
Cc1cc(NC(=O)Nc2ccc3c(c2)OC(F)(F)O3)cc(C(F)(F)F)n1 | THP-1-derived macrophages (PMA) | cytotoxicity | – | – | – | IC50 | 16 µM
Cc1c(-c2ccc(N3CCc4cccc(C(=O)Nc5nc6ccccc6s5)c4C3)nc2C(=O)O)cnn1CC12CC3(C)CC(C)(C1)CC(OCCNCC[C@H](O)CO)(C3)C2 | – | – | anaesthetised male beagle dogs | intravenous infusion, 0.3 mg/kg/min, 75 min | reference: vehicle | cardiac output change | -16%
CCC[C@H](CC)Oc1ccc(C(C)(C)C)cc1NC(=O)c1nnn(-c2cc(C)c(OC)cc2OC)c1C | SNU-C4 HiBiT-PXR knock-in | CellTiter-Glo | – | 72 h, 10% FBS | – | CC50 | > 30 µM
CCCC(=O)OCSc1ccccc1C(=O)NCCn1cc(C(=O)NCc2ccncc2)c(=O)c2cc3c(cc21)OCO3 | CEM-SS | cell viability, XTT | RPMI with 10% FBS | 6 days | – | TC50 | 23 ± 3.55 µM
CC(C)C[C@H](NC(=O)C[C@H](O)[C@H](CC(C)C)NC(=O)[C@H](Cc1c[nH]cn1)NC(=O)CNC(=O)[C@@H](NC(=O)[C@H](C)NC(=O)[C@H](Cc1c[nH]c2ccccc12)NC(=O)[C@H](CCC(N)=O)NC(=O)[C@@H](Cc1ccccc1)NC(=O)COCCOCCNC(=O)CCC(C(=O)O)N1CCN(CC(=O)O)CCN(CC(=O)O)CCN(CC(=O)O)CC1)C(C)C)C(N)=O (stereo partly drawn) [lutetium-177 labelled] | – | – | BALB/c nu/nu mice, small intestine | 50 pmol, 1 h, with: PA 300 µg | – | tissue uptake | 1.6 ± 0.6 %ID/g
CCCC(=O)OCSc1ccccc1C(=O)NCCn1cc(C(=O)NCc2cccnc2)c(=O)c2cc3c(cc21)OCO3 | CEM-SS | cell viability, XTT | RPMI with 10% FBS | 6 days | – | TC50 | > 100 µM
CCC[C@H](CC)Oc1ccc(C(=O)OC)cc1NC(=O)c1nnn(-c2cc(OC)ccc2OC)c1C | SNU-C4 HiBiT-PXR knock-in | CellTiter-Glo | – | 72 h, 10% FBS | – | CC50 | > 30 µM
O=C(N[C@@H]1CC[C@@H](c2cccc(F)c2F)CN(CC(F)(F)F)C1=O)N1CCC(n2c(=O)[nH]c3ncccc32)CC1 | cryopreserved human hepatocytes | – | – | concentration not given | – | intracellular accumulation | ≥ 12 fold
CN[C@H](CC(C)C)C(=O)N[C@H]1C(=O)N[C@@H](CC(N)=O)C(=O)N[C@H]2C(=O)N[C@H]3C(=O)N[C@H](C(=O)N[C@H](C(=O)O)c4cc(O)cc(O)c4-c4cc3ccc4O)[C@H](O)c3ccc(c(Cl)c3)Oc3cc2cc(c3O[C@@H]2O[C@H](CO)[C@@H](O)[C@H](O)[C@H]2O[C@H]2C[C@](C)(N)[C@H](O)[C@H](C)O2)Oc2ccc(cc2Cl)[C@H]1O | sheep erythrocytes | – | – | 512 µg/mL, 37 °C | reference: Triton X-100 | hemolysis | < 5%
CCc1cc(C(=O)NC)c2nccc(N3CCc4c(cc(Cn5ccnc5)cc4-c4cn(C)nc4C(F)(F)F)C3=O)c2c1 | – | – | Sprague Dawley rats | oral, 100 mg/kg twice daily, 7 days | reference: vehicle | blood TBIL change | -15.6%
Cc1cc(Nc2ccc(S(F)(F)(F)(F)F)cc2)n2nc(C(C)(F)F)nc2n1 | Plasmodium falciparum | – | human malaria patients, plasma | oral, 250 mg, median | – | Tmax | 6 h
CC(C)n1ncc2c(C(=O)NCC3(C)CNC3)cc(C3CC3)nc21 | HeLa | neutral red uptake | – | 1 µM, 2% FBS | reference: positive control | viability | 102%
Cc1cc(C(=O)NC(C)(C)COc2cccc3c2C(N)=NS(=O)(=O)N3)cc(C)n1 | human peripheral blood lymphocytes | CBPI, concurrent micronucleus test | – | 2000 µg/mL, 4 h, with: rat liver S9 | reference: vehicle control | cytotoxicity | -4%
COc1cc(/C=C/C=C2\SC(=S)NC2=O)cc(OC)c1O | HeLa | CellTiter-Glo | – | 5 µM, 24 h, unit not given | reference: untreated | viability | 0.975 and 0.969
Nc1nc(NS(=O)(=O)c2ccccc2)nc(-c2ccc(Cl)cc2)c1-c1nc2ccccc2s1 | Vero | cytotoxicity | – | 72 h | – | maximum non-toxic concentration | 100 µg/mL
CNCCOC12CC3(C)CC(C)(CC(Cn4ncc(-c5ccc(N6CCc7cccc(C(=O)Nc8nc9ccccc9s8)c7C6)nc5C(=O)O)c4C)(C3)C1)C2 | – | – | beagle dog, male, anaesthetised | intravenous bolus, 0.03 mg/kg, 120 min | reference: baseline | heart rate change | -2%
CC(=O)Nc1cccc(-n2c(=O)n(C3CC3)c(=O)c3c(Nc4ccc(I)cc4F)n(C)c(=O)c(C)c32)c1 | LoVo (KRAS G13D) | resazurin | – | 50.00 nM, 72 h | reference: DMSO | viability fraction | 0.387
CC1(C)CCC(c2ccc(Cl)cc2)=C(CN2CCN(c3ccc(C(=O)NS(=O)(=O)c4ccc(N[C@H](CCN5CCOCC5)CSc5ccccc5)c(S(=O)(=O)C(F)(F)F)c4)cc3)CC2)C1 | murine ileum enteroid monolayers | drug in secreted lipoproteins | – | 50 % saturated solubility, with: oleic acid/2-monoolein micelles | reference: taurocholate/phosphatidylcholine micelles | max increase of Papp | 14.9 fold
O=C1c2ccncc2C(=O)c2c1[nH]c1ccccc21 | PAH hPASMC | Seahorse XFe24 | – | 1 µM, 12 h | – | mitochondrial respiration | no inhibition
C#Cc1c(F)ccc2cc(O)cc(-c3ncc4c(N5CC6CCC(C5)N6)nc(OC[C@@]56CCCN5C[C@H](F)C6)nc4c3F)c12 | Caco-2 | – | – | no inhibitor, BCRP (novobiocin) set | – | Papp (A to B) | < 0.479 ×10⁻⁶ cm/s

Compound | tested on | assay | test system | conditions | scale | endpoint | value
CN(C)CCNC(=O)c1cccn2c(=O)c3cc4ccccc4cc3nc12 | HeLa | resazurin | – | 5 days | – | CC50 | < 0.28 µM
CCCC(=O)OCSc1ccccc1C(=O)NCCn1ccc(=O)c2cc3c(cc21)OCO3 | CEM-SS | cell viability, XTT | RPMI with 10% FBS | 6 days | – | TC50 | 32.2 ± 3 µM
CC[C@H](C)C(=O)N1CCC(NC(=O)Nc2ccc(OC(F)(F)F)c(F)c2)CC1 | Caco-2 | Caco-2 permeability | – | 10 µM, 60 min, pH 7.4 apical, 7.4 basolateral, mean, with: verapamil | basolateral to apical | percent recovery | 90%
CCCC(=O)OCSc1ccccc1C(=O)NCCC(=O)NCCn1ccc(=O)c2cc3c(cc21)OCO3 | CEM-SS | cell viability, XTT | RPMI with 10% FBS | 6 days | – | TC50 | > 100 µM
C[C@H](CCC(=O)NCCS(=O)(=O)O)[C@H]1CC[C@H]2[C@@H]3[C@H](O)C[C@@H]4C[C@H](O)CC[C@]4(C)[C@H]3C[C@H](O)[C@]12C | HCE | MTT | – | up to 50 µM | – | cytotoxicity | not toxic
CCCC(=O)OCSc1ccccc1C(=O)NCCOc1ccnc2ccc(OC(F)(F)F)cc12 | CEM-SS | cell viability, XTT | RPMI with 10% FBS | 6 days | – | TC50 | 43.7 ± 12.7 µM
CCN1/C(=C/C(C)=O)Sc2ccc(F)cc21 | human hepatocytes | LC-MS | – | radiolabelled compound | – | number of metabolites identified | 8
COC[C@@H](CC(C)C)NC(=O)c1ccc(C)c(C)c1 | primary human lymphocytes | – | – | 280 µg/mL, 4 (unit not given), with S9 | – | cells with structural aberrations | 0%
CCCC(=O)OCSc1ccccc1C(=O)NCCCn1ccc(=O)c2cc3c(cc21)OCO3 | CEM-SS | cell viability, XTT | RPMI with 10% FBS | 6 days | – | TC50 | 16.1 ± 0.6 µM
CN(C(=O)C(C)(C)c1cc(C(F)(F)F)cc(C(F)(F)F)c1)c1cnc(N2C[C@H]3COCCN3C[C@H]2CO)cc1-c1ccc(F)cc1[14CH3] | cryopreserved human hepatocytes | – | – | 5 µM, 0 h | – | turnover | < 1%
Cc1cccc(CNC(=O)c2cn(CCNC(=O)c3ccccc3Sc3c([N+](=O)[O-])ncn3C)c3cc4c(cc3c2=O)OC(F)(F)O4)n1 | CEM-SS | cell viability, XTT | – | 6 days, RPMI with 10% FBS, with: no added glutathione | – | TC50 | 17.6 µM
CC[C@H]1OC(=O)[C@H](C)[C@@H](O[C@H]2C[C@@](C)(OC)[C@@H](O)[C@H](C)O2)[C@H](C)[C@@H](O[C@@H]2O[C@H](C)C[C@H](N(C)C)[C@H]2O)[C@](C)(O)C[C@@H](C)/C(=N\OCOCCOC)[C@H](C)[C@@H](O)[C@]1(C)O | human hepatocytes | measured: CYP3A4 | – | concentration not given, 3 days | reference: negative control | mRNA level | < 4 fold
C[C@H](O)c1cnc(NS(=O)(=O)c2ccc(C(F)(F)F)c(Cl)c2)nc1 | cryopreserved human hepatocytes | pan-CYP inhibition | – | 1 µM, with: 1 mM 1-aminobenzotriazole and 15 µM tienilic acid | – | metabolism inhibited by ABT and TA | 24%
O=C(Nc1nc2cccc(-c3ccc(CN4CCS(=O)(=O)CC4)cc3)n2n1)C1CC1 | – | measured: first degree atrioventricular block | human rheumatoid arthritis patients | oral, 75 mg once daily, 4 weeks, regardless of relatedness | – | treatment-emergent adverse events | 4.5%
CC1(C)CC(=O)c2c(C(F)(F)F)nn(-c3ccc(C(N)=O)c(N[C@H]4CC[C@H](O)CC4)c3)c2C1 | primary human keratinocytes uninfected | live/dead staining | – | 20 h | – | CC50 | 0.45 µM
COc1cc2ncnc(Nc3ccc(Oc4ccccc4)cc3C)c2cc1OC.O=C(O)C(F)(F)F | MeWo (NF1) | resazurin | – | 0.1 µM, 72 h, with: trametinib 0 nM | – | viability fraction | 1
CCCC(=O)OCSc1ccccc1C(=O)NCCn1cc(C(=O)NCc2cccc(C)n2)c(=O)c2cc3c(cc21)OC(F)(F)O3 | CEM-SS | cell viability, XTT | RPMI with 10% FBS | 6 days | – | TC50 | > 100 µM
Nc1ccn([C@@H]2O[C@H](CO)[C@@H](O)C2(F)F)c(=O)n1 | primary human keratinocytes uninfected | live/dead staining | – | 20 h | – | CC50 | < 0.08 µM
C[C@@H](c1ccc2nccn2c1)n1nnc2ncc(-c3cnn(C)c3)nc21 | human hepatocytes | measured: CYP1A2 mRNA | human | 48 h | – | F2 | > 30 µM
O=c1c(O[C@@H]2O[C@H](CO)[C@@H](O)[C@H](O)[C@H]2O)c(-c2ccc(O)cc2)oc2cc(O)cc(O)c12 | HaCaT | cytotoxicity, MTT | – | 48 h, 10% FBS | – | IC50 | > 200 µM
O=C(C[C@@H](C(F)F)n1ccc(F)n1)N1CCC(O)(Cn2cnc3c(cnn3-c3ccc(F)cc3)c2=O)CC1 | CHP-212 USP7 V517F knock-in | SRB | – | 9.145 nM, 5 days | – | viability | 103%
CSc1nc(NS(=O)(=O)c2ccccc2)nc(N)c1-c1nc2ccccc2s1 | Vero | cytotoxicity | – | 72 h | – | maximum non-toxic concentration | 90 µg/mL

Excerpt of the above:
Compound | tested on | assay | test system | conditions | scale | endpoint | value
CC(C)C[C@H](NC(=O)C[C@H](O)[C@H](CC(C)C)NC(=O)[C@H](Cc1c[nH]cn1)NC(=O)CNC(=O)[C@@H](NC(=O)[C@H](C)NC(=O)[C@H](Cc1c[nH]c2ccccc12)NC(=O)[C@H](CCC(N)=O)NC(=O)[C@@H](Cc1ccccc1)NC(=O)COCCOCCNC(=O)CCC(C(=O)O)N1CCN(CC(=O)O)CCN(CC(=O)O)CCN(CC(=O)O)CC1)C(C)C)C(N)=O (stereo partly drawn) [lutetium-177 labelled] | – | – | BALB/c nu/nu mice, small intestine | 50 pmol, 1 h, with: PA 300 µg | – | tissue uptake | 1.6 ± 0.6 %ID/g
CCCC(=O)OCSc1ccccc1C(=O)NCCn1cc(C(=O)NCc2cccnc2)c(=O)c2cc3c(cc21)OCO3 | CEM-SS | cell viability, XTT | RPMI with 10% FBS | 6 days | – | TC50 | > 100 µM
CCC[C@H](CC)Oc1ccc(C(=O)OC)cc1NC(=O)c1nnn(-c2cc(OC)ccc2OC)c1C | SNU-C4 HiBiT-PXR knock-in | CellTiter-Glo | – | 72 h, 10% FBS | – | CC50 | > 30 µM
O=C(N[C@@H]1CC[C@@H](c2cccc(F)c2F)CN(CC(F)(F)F)C1=O)N1CCC(n2c(=O)[nH]c3ncccc32)CC1 | cryopreserved human hepatocytes | – | – | concentration not given | – | intracellular accumulation | ≥ 12 fold
CN[C@H](CC(C)C)C(=O)N[C@H]1C(=O)N[C@@H](CC(N)=O)C(=O)N[C@H]2C(=O)N[C@H]3C(=O)N[C@H](C(=O)N[C@H](C(=O)O)c4cc(O)cc(O)c4-c4cc3ccc4O)[C@H](O)c3ccc(c(Cl)c3)Oc3cc2cc(c3O[C@@H]2O[C@H](CO)[C@@H](O)[C@H](O)[C@H]2O[C@H]2C[C@](C)(N)[C@H](O)[C@H](C)O2)Oc2ccc(cc2Cl)[C@H]1O | sheep erythrocytes | – | – | 512 µg/mL, 37 °C | reference: Triton X-100 | hemolysis | < 5%
